# Experimental data from different studies.
# Protocols differ between the studies behind these lines. “And” joins repeats or separate records; there may be more than shown. ± marks the error that the study gave.
Compound,test,test system,conditions,half-life
C1=C/COCc2cc(ccc2OCCN2CCCC2)Nc2nccc(n2)-c2cccc(c2)COC/1,LC-MS/MS,"Sprague-Dawley rat, male, plasma","oral, 36 mg/kg, added: voriconazole 30 mg/kg oral",10.1 ± 2.06 h
Cc1cccc(CNC(=O)c2cn(CCNC(=O)c3ccccc3Sc3c([N+](=O)[O-])ncn3C)c3cc4c(cc3c2=O)OC(F)(F)O4)n1,,"Sprague-Dawley rat, male, plasma","intramuscular, 3 mg/kg",6.6 ± 1.81 h
COC(=O)C1=CO[C@@H](O[C@@H]2O[C@H](CO)[C@@H](O)[C@H](O)[C@H]2O)[C@@H]2C(CO)=CC[C@H]12,,"rat, plasma","oral, 500 mg/kg Eu + 217 mg/kg Pc extract, dosed as combined Eu and Pc extracts",2.27 ± 1.39 h
CC(C)c1nc(N(C)S(C)(=O)=O)nc(-c2ccc(F)cc2)c1/C=C/[C@@H](O)C[C@@H](O)CC(=O)O,,"Wistar albino rat, both sexes, plasma","oral, 20 mg/kg",7.9 h
CSc1ccccc1C(=O)NCCn1cc(C(=O)NCc2cccc(C)n2)c(=O)c2cc3c(cc21)OC(F)(F)O3,,"Sprague-Dawley rat, male, plasma","intravenous, 20 mg/kg of parent drug",8.85 h
Cn1nc2c(=O)n(C3CC3)ncc2c1[C@](N)(c1ccc(C(F)(F)F)c(Cl)c1)C1CC1,,"Sprague-Dawley rat, male","intravenous, 1 mg/kg",15 ± 1.2 h
CNC(=O)c1ccc(N2C(=S)N(c3ccc(C#N)c(C(F)(F)F)c3)C(=O)C2(C)C)cc1F,"HPLC-MS/MS, measured: free compound","Sprague-Dawley rats, plasma",1.0 mg/kg,~42.5 h
Cc1ccc(S(=O)(=O)n2cc3c4c2C(=O)C(NCc2ccc(Cl)cc2)=CC4=NCC3)cc1,,"Sprague-Dawley rat, plasma","intravenous, 5 mg/kg, two-compartment model",1.61 h and 1.12 h
O=C(O)c1cc(O)c(O)c(O)c1,,"rat, plasma","oral, 500 mg/kg extract, extract",2.52 ± 0.13 h
O=C(Nc1ccc(OC(F)(F)Cl)cc1)c1cnc(N2CC[C@@H](O)C2)c(-c2ccn[nH]2)c1,,"Sprague-Dawley rat, male, plasma","oral, 8 mg/kg",3.21 ± 0.54 h
Cc1cccc(CNC(=O)c2cn(CCNC(=O)c3ccccc3S)c3cc4c(cc3c2=O)OC(F)(F)O4)n1,,"Sprague-Dawley rat, male, whole blood","intravenous, 5 mg/kg",5.43 ± 1.64 h
Cn1nc2c(=O)n(C3CC3)ncc2c1[C@](O)(c1cnc(C(F)(F)F)c(Cl)c1)C(F)(F)F,,"Sprague-Dawley rat, male","intravenous, 1 mg/kg",15 ± 1.2 h
Cc1cc(NC(=O)c2cccc(NC(=O)/C=C/CN(C)C)c2)ccc1Nc1nccc(-c2cccnc2)n1,,"rat Wistar male, plasma",1 µM,6.23 h and 6.11 h
Cc1nc2cccc(OCC(C)(C)C(=O)NC(C)C)c2c(N)c1C(=O)O.Cc1nc2cccc(OCC(C)(C)C(=O)NC(C)C)c2c(N)c1C(=O)O.O=S(=O)(O)O,,"male Sprague-Dawley rat, plasma","oral, 30 mg/kg",2.52 h
CCc1cc(C(=O)NC)c2nccc(N3CCc4c(cc(Cn5ccnc5)cc4-c4cn(C)nc4C(F)(F)F)C3=O)c2c1,,"Sprague Dawley rat, male, plasma","oral, 50 mg/kg once daily, 7 days, toxicokinetic satellite group",3.2 h
CCn1cc(Cl)c2c(Cc3ccc(C(F)(F)F)nc3)n(C)nc2c1=O,,"Sprague-Dawley rat, male","intravenous, 1 mg/kg",1 ± 0.2 h
OCC1=C[C@@H](O)[C@@H]2C=CO[C@@H](O[C@@H]3O[C@H](CO)[C@@H](O)[C@H](O)[C@H]3O)[C@H]12,,"rat, plasma","oral, 500 mg/kg Eu extract, dosed as Eu extract",2.37 ± 1.72 h
N=C(N)NCCNC(=O)C1(Nc2ccccc2)CCN(Cc2ccccc2)CC1,,"female Sprague-Dawley rats, plasma","intravenous, 2.5 mg/kg",0.9 ± 0.1 h
Cc1nccn1CC1CCc2c(c3ccccc3n2C)C1=O (centres unmarked),,"male Sprague Dawley rat, plasma","iv bolus, 5 mg/kg, added: tariquidar 15 mg/kg iv",0.54 h
CC(C)[C@@H](CN1CC[C@@](C)(c2cccc(O)c2)[C@@H](C)C1)NC(=O)[C@H]1Cc2ccc(O)cc2CN1,,"Sprague-Dawley rat, plasma","intraperitoneal, 10 mg/kg",29.6 h
N=C(N)NCCC[C@H](NC(=O)[C@@H](NC(=O)[C@H](Cc1cscn1)NC(=O)CCc1ccccc1)C1CCCCC1)C(=O)c1nc2ccccc2s1,,"Sprague-Dawley rat, male, plasma",85 µM,> 24 h
O=C1C[C@@H](c2ccc(O)cc2)Oc2cc(O)cc(O)c21,,"Sprague-Dawley rat, plasma","intravenous bolus, 1 mg/kg",1.63 ± 0.47 h
O=C(O)C1=CO[C@@H](O[C@@H]2O[C@H](CO)[C@@H](O)[C@H](O)[C@H]2O)[C@@H]2C(CO)=CC[C@H]12,,"rat, plasma","oral, 500 mg/kg Eu + 217 mg/kg Pc extract, dosed as combined Eu and Pc extracts",1.91 ± 0.34 h

# A few entries again:
Compound,test,test system,conditions,half-life
N=C(N)NCCC[C@H](NC(=O)[C@@H](NC(=O)[C@H](Cc1cscn1)NC(=O)CCc1ccccc1)C1CCCCC1)C(=O)c1nc2ccccc2s1,,"Sprague-Dawley rat, male, plasma",85 µM,> 24 h
